Assay results pooled from the literature.
Every numbered part comes from another study and shows a few of its results, in no order. Positions count from the first letter of the parent shown.
Chain of UniProt Q15349 (whole entry, looked up): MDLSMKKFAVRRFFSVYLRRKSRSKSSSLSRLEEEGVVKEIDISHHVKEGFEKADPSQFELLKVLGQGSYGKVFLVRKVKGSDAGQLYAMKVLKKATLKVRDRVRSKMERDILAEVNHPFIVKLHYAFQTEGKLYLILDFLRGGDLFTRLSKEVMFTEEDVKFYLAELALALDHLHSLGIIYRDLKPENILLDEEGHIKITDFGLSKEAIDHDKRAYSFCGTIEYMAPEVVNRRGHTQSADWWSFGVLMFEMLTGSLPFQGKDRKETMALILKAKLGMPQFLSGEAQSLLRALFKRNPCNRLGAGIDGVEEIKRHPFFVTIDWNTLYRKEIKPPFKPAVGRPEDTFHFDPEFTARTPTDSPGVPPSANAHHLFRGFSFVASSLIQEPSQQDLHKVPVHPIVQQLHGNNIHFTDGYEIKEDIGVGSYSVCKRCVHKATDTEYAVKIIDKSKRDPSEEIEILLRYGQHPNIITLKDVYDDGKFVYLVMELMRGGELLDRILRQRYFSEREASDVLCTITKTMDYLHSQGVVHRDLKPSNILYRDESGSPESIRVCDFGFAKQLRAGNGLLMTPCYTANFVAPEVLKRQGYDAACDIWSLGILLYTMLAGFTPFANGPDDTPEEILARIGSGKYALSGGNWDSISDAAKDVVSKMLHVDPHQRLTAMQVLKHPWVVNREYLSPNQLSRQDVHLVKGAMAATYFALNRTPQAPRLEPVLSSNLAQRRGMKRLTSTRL

Sample 1 — method: protein-binding microarray; form: double-stranded DNA, one strand shown; medium: in vitro; concentration: not given; reading: higher = stronger binding
Target: Transcription factor Sp1 (SP1, Homo sapiens, UniProt P08047, residues 1-785, full length assumed)
Chain of UniProt P08047 (whole entry, looked up): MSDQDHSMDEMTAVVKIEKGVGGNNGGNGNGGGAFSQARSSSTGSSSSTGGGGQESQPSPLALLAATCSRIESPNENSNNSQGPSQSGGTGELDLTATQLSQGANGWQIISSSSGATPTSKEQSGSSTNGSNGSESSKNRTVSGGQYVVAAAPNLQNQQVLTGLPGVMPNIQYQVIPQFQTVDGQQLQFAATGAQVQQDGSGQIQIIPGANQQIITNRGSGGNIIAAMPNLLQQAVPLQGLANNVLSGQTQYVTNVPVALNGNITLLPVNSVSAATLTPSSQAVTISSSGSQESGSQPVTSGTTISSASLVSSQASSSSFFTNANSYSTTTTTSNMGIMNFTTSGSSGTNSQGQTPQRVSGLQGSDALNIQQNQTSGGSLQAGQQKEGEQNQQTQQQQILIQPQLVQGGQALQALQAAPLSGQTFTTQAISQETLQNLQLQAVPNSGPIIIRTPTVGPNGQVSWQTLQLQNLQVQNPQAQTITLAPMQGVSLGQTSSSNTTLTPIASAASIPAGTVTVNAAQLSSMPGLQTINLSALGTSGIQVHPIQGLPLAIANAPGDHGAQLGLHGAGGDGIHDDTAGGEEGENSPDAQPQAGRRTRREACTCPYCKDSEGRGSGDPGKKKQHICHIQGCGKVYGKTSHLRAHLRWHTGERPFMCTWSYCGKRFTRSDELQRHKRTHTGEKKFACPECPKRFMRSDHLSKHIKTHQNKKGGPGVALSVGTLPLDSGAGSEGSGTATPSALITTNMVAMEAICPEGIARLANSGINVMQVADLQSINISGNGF
Notes: k-mer, scored over probes, only values ≥0.25
Sequence | E-score
ACACGTGT | 0.259
ATATCGCC | 0.297
AGTAGGGG | 0.305
CATCCCCG | 0.256
GACCGCCC | 0.348
TGGTACAA | 0.269
AATCAACA | 0.272
TGTACACA | 0.279

Sample 2 — target: CCNA2, cyclin fold, Cln2 fusion (human); method: yeast growth competition, sequencing; medium: yeast; notes: strong parent motif; relative to: not given; reading: higher = stronger binding
Starting sequence: WEE1 docking peptide (human); HKTFRKLRLFDTP
Variant | normalised enrichment score
T3E | 0.63
H1G | 0.888
K2F | 1.69
K2H | 1.03
T12P | 1.36
L9R | 0.669
T3V | 2.77
F4M | 2.04

Sample 3 — target: CREB3L3, bZIP domain (human); method: DHFR protein complementation; medium: yeast; relative to: wild-type JUN-FOS pair; reading: higher = stronger binding
Notes: single substitutions, most at no-binding floor
Starting sequence: JUN, bZIP domain (human); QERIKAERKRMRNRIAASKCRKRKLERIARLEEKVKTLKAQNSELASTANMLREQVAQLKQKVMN; partner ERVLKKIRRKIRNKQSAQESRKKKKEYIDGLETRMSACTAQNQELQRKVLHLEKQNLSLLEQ
Variant | binding fitness
L52P | -1.53 natural log
Q55M | -1.42 natural log
R30H | -1.18 natural log
V56N | -1.54 natural log
N42F | -1.52 natural log
A46V | -1.46 natural log
V35Y | -1.34 natural log
E54T | -1.49 natural log

Further values, each from its own experiment
SMILES | target | observed | method | concentration | measurement | result
Cc1cc(-n2nc(Cc3cc(F)cc(C(F)(F)F)c3)nc2C)ccc1C(N)=O | Ribosomal protein S6 kinase alpha-2, C-terminal kinase domain (RPS6KA2, Homo sapiens, UniProt Q15349) | cell-free assay | competition with immobilised ligand | 1 µM | remaining binding | 100%

A few entries again (sample 3):
Variant | binding fitness
L52P | -1.53 natural log
N42F | -1.52 natural log
A46V | -1.46 natural log
